Results of several laboratories.
Lines come from different studies, so protocols differ. “And” joins repeats or separate records; there may be more than shown. ± gives the spread as reported. In brackets after ≈: the same amount, converted by molar mass.

For `Cc1c(Cc2cccc(OC(C)(C)C(=O)O)c2)c2ccc(C(=O)N[C@@H](C)c3ccc(F)c(C(C)(C)C)c3)cc2n1CC(C)C`, the half-life was greater than 1 h (human liver microsomes; 1 µM, together with: microsomes 1 mg/mL).
The tracer uptake of `Cc1nc(N)nc2c1C(=O)N[C@@H](c1ccc(F)cc1-c1cccc(O[11CH3])n1)C2` is reported as 19.9 ± 0.3 %ID (ex vivo biodistribution; mice, MDA-MB-231 subcutaneous xenograft, intestines; 60 min post-injection, baseline, vehicle pre-treatment).
`CC1Cc2ccccc2N1C(=O)CN1CCN(Cc2ccccc2)CC1` (stereo not drawn) gave a blood concentration of 0.197 µg/mL (female NMRI mice, whole blood; intraperitoneal, 10 mg/kg free base, 15 min).
`CC(C)[C@H](NC(=O)[C@H](Cc1c[nH]c2ccccc12)NC(=O)[C@H](CCCNC(=N)N)NC(=O)[C@H](CCCNC(=N)N)NC(=O)[C@@H](NC(=O)[C@@H](NC(=O)[C@H](CCCNC(=N)N)NC(=O)[C@@H](NC(=O)[C@@H](NC(=O)[C@H](CCCNC(=N)N)NC(=O)[C@H](CCCNC(=N)N)NC(=O)[C@@H](NC(=O)[C@H](Cc1c[nH]c2ccccc12)NC(=O)[C@H](CCCNC(=N)N)NC(=O)[C@H](CCCNC(=N)N)NC(=O)[C@@H](NC(=O)[C@H](CCCNC(=N)N)NC(=O)[C@H](CCCNC(=N)N)NC(=O)[C@@H](NC(=O)[C@H](Cc1c[nH]c2ccccc12)NC(=O)[C@H](CCCNC(=N)N)NC(=O)[C@@H](N)CCCNC(=N)N)C(C)C)C(C)C)C(C)C)C(C)C)C(C)C)C(C)C)C(C)C)C(=O)N[C@@H](CCCNC(=N)N)C(=O)N[C@@H](CCCNC(=N)N)C(=O)O` gave a creatinine excretion of 15.4 µg/day/g body weight (CD1 mouse, urine; intravenous, 15 mg/kg, 16 h, [14C]-labelled compound).
Under “Cmax at first steady-state dose”, `CN1CCC[C@]1(C)/C=C/S(=O)(=O)NC(=O)Nc1c2c(cc3c1CCC3O)CCC2` (stereo partly drawn) is recorded as 94.9 µg/mL (human, plasma; oral, 100 mg twice daily of parent drug, day 14, metabolite of dosed drug).
For `COc1ccc(F)cc1C(=O)NCc1ccc(-c2nn([C@@H](C)C(F)(F)F)c(N)c2C(N)=O)cc1`, the clearance was 28.2 mL/min (male human, plasma; intravenous, 22 µg).
With `C=CC(=O)N1CCCC(n2c(=O)c3ncccc3n(Cc3ccc(Oc4ccccc4)cc3)c2=O)C1` (stereo not drawn) the compound remaining was 0.4% (metabolic stability; male CD-1 mouse, hepatocytes; 1 µM, 90 min).
`CC(C)(C)C(=O)Nc1ccc2[nH]c(CN3CCC(N(CCCN4CCOCC4)CC4OC(n5cnc6c(N)ncnc65)C(O)C4O)CC3)nc2c1` (stereo not drawn) has a concentration of 1.31 µg/mL (male Sprague-Dawley rat, plasma; intravenous, 20 mg/kg, 30 min).
`O=C([O-])CN1CCN(CC(=O)[O-])CCN(CC(O)CN(CC(O)CN2CCN(CC(=O)[O-])CCN(CC(=O)[O-])CCN(CC(=O)[O-])CC2)C[C@H](O)[C@@H](O)[C@H](O)[C@H](O)CO)CCN(CC(=O)[O-])CC1.[Gd+3]` (stereo partly drawn) has a log K of 5.32 (pH-potentiometry, item: Gd(HL)M, M = Zn2+; 25 °C, 0.15 M NaCl).
For `Cc1ccnc(-c2cc(C(=O)O)ccn2)c1.F[P-](F)(F)(F)(F)F.F[P-](F)(F)(F)(F)F.[Ru+2].c1ccc(-c2ccccn2)nc1.c1ccc(-c2ccccn2)nc1`, “singlet oxygen yield” read 51% (RNO/histidine method; acetonitrile; together with: irradiation 365 nm; baseline: phenalenone).
`CN1CCC[C@]1(C)/C=C/S(=O)(=O)NC(=O)Nc1c2c(cc3c1CC(O)C3)CCC2` (stereo partly drawn) — result for “Cmax at first steady-state dose”: 1.7 µg/mL (human, plasma; oral, 12.5 mg twice daily of parent drug, day 14, metabolite of dosed drug).
For `O=c1c2ccccc2[se]n1CCCCCCn1[se]c2ccccc2c1=O`, the solubility was 33.8 ± 0.7 mg/mL (≈ 70.7 mM) (shake-flask, RP-HPLC; DMSO; 24 h, 25 °C).
The retention time of `CC(C)C[C@@H]1NC(=O)[C@H](CCCCN)NC(=O)C(N)CCC=CCCC(C(N)=O)NC(=O)[C@H](CCCCN)NC(=O)[C@H](CC(C)C)NC(=O)[C@H](CCCCN)NC(=O)C2CCC=CCCC(NC(=O)[C@H](CCCCN)NC1=O)C(=O)N[C@@H](CCCCN)C(=O)N1CCC[C@@H]1C(=O)NCC(=O)N[C@@H](CCCCN)C(=O)N2` (stereo partly drawn) is reported as 14.9 min (RP-HPLC C18; hydrophobicity).
The MRT(0-last) of `C=C(NC(=O)c1csc(-c2nc3c(cc2O)-c2nc(cs2)C(=O)NC(C(C)O)C(=O)NC(=C(C)OC)c2nc(cs2)C(=O)NC2c4nc(cs4)C(=O)NC(COC(=O)c4c5c6c(cccc6n4O)COC(=O)C(OC4CC(C)(O)C(N(C)C)C(C)O4)C2OC5)c2nc-3cs2)n1)C(N)=O` (stereo not drawn) is reported as 1.32 h (Sprague-Dawley rat, both sexes, plasma; intravenous infusion, 6 mg/kg single dose).
With `COc1ccc([C@@H]2CC(=O)c3c(O)cc(O[C@@H]4O[C@H](CO)[C@@H](O)[C@H](O)[C@H]4O[C@@H]4O[C@@H](C)[C@H](O)[C@@H](O)[C@H]4O)cc3O2)cc1O` the Tmax was 4.02 ± 2.03 h (LC-MS/MS; Sprague-Dawley rat, male, lean, plasma; oral, 100 mg/kg).
With `CCOc1cc(CN2CCCC(CNC(=O)c3ccc(F)cc3)C2)ccc1OC` (stereo not drawn) the translation activity was 108% (Trypanosoma cruzi; reporter mRNA translation, inhibitor, item: Renilla luciferase mRNA; cell-free extract; concentration not given, test 2; baseline: positive over negative control).
For `C#CCOCCOCCOCCOCCn1cc(C(ONC(=O)/C=C/C(C)=C/C2(C)Oc3cc(N(C)C)ccc3C2=O)(c2ccc(C)cc2)c2ccc(C)cc2)nn1` (stereo not drawn), “release from prodrug hydrolysis” read 100% (HPLC; aqueous buffer, 20% acetonitrile; concentration not given, 0 min, pH 3; baseline: initial prodrug amount).
For `O=C(Nc1cnccc1-c1ccc([18F])cc1)c1ccnc(NC(=O)C2CC2)c1`, the SUV was 0.22 (ex vivo gamma counting; GSK-3β transgenic mice, late-stage, cortex; intravenous, 120 min, mean, P-gp inhibitor pretreatment, together with: tariquidar 15 mg/kg iv).
With `COc1ccnc(C(=O)N[C@H]2COC(=O)[C@H](Cc3ccccc3)[C@@H](OC(=O)C(C)C)[C@H](C)OC2=O)c1O` the KFoc was 33600 mL/g (soil adsorption; soil; pH 5.9, organic carbon 0.9 %).
`CC[C@H](C)[C@@H](C(=O)N[C@@H](CC(C)C)C(=O)N[C@@H](CO)C(=O)N[C@@H](CO)C(=O)N[C@H](C(=O)N[C@@H](CCC(=O)O)C(=O)N[C@H](C(=O)NCC(=O)N[C@@H](CO)C(=O)N[C@@H](CC(N)=O)C(=O)N[C@H](C(=O)N1C[C@H](O)C[C@H]1C(N)=O)[C@@H](C)O)C(C)C)[C@@H](C)O)N(C)C(=O)[C@H](C)NC(=O)CN(C)C(=O)[C@H](Cc1ccccc1)NC(=O)[C@H](CO)NC(=O)[C@H](CO)NC(=O)[C@H](CCCNC(=N)N)NC(=O)[C@H](CCC(N)=O)NC(=O)[C@H](CC(C)C)NC(=O)[C@H](Cc1ccccc1)NC(=O)[C@H](CCCC(=O)O)NC(=O)[C@H](C)NC(=O)[C@H](CC(C)C)NC(=O)[C@H](CCCNC(=N)N)NC(=O)[C@H](CCC(=O)O)NC(=O)[C@@H](NC(=O)[C@H](C)NC(=O)[C@@H]1CCCCNC(=O)C[C@H](NC(=O)[C@H](CCCNC(=N)N)NC(=O)CC[C@H](NC(=O)CCCCCCCCCCCCCCCCCCC(=O)O)C(=O)O)C(=O)NCC(=O)N[C@@H]([C@@H](C)O)C(=O)N[C@@H](C)C(=O)N[C@@H]([C@@H](C)O)C(=O)N1)[C@@H](C)O` gave a covalent oligomers of no more than 0.2% (SEC; formulation, Tris buffer, mannitol, NaCl; 1 weeks, pH 6.6, 40 °C).
The Papp A→B of `O=c1[nH]c2ccccc2c(=O)n1O` is reported as 34 nm/s (Caco-2; 10 µM).
For `CN1CCCNC(=O)c2cccc(c2)C(=O)NCCCN(C)CCCNc2cccc3c2C(=O)c2cccc(c2C3=O)NCCC1`, the body weight was 27 g and 29 g (mouse xenograft model; dose not given, day 10).
With `COc1ccc(CNc2nc([C@H]3CC[C@H](C(=O)O)CC3)nc3sc4ccccc4c23)cc1Cl` the body weight was 21 g and 21.3 g and 18.3 g and 22.9 g (NSG mouse; dose not given, day 1 of treatment).
The Clast of `Cc1nn(-c2nc3c(F)cc(F)cc3s2)c(O)c1C(c1ccc(C(F)(F)F)cc1)c1c(C)nn(-c2nc3c(F)cc(F)cc3s2)c1O` is reported as 0.226 µg/mL and 0.509 µg/mL and 2.88 µg/mL (ICR mouse, plasma; oral, 50 mg/kg).
Under “subjects with TEAEs”, `CC(C)(O)c1ncc([S@](N)(=O)=NC(=O)Nc2c3c(cc4c2CCC4)CCC3)s1` is recorded as 17% (item: infections and infestations; healthy human; oral, 600 mg, SDD formulation).
For `O=C(c1ccccc1)N1C(c2ccc(OCC3CCN(CCCF)C3)cc2)c2ccc(O)cc2CC12CC2` (stereo not drawn), the AUC(0-t) was 2.76 µg·h/mL (C57BL/6J mouse, plasma; oral, 25 mg/kg).
The recovery of `C=CC(=O)Nc1cc(Nc2nccc(-c3cn(C)c4ccccc34)n2)c(OC)cc1N(C)CCNC` is reported as 61.6% (storage stability; human plasma; 10 d, on ice, LLOQ level).
For `Cc1cc(-c2ccc(C(=O)[C@@H]3CCCC[C@H]3C(=O)Nc3cnn4c3C(=O)NCC4)cc2)[nH]n1`, “cumulative radioactivity recovery” read 85.3% and 46.8% and 81.2% and 74.2% and 71.8% and 75.6% (human, faeces; oral, 200 mg, 0-144 h; baseline: dose).
`O=C(Nc1cnccc1-c1ccc([18F])nc1)c1ccnc(NC(=O)C2CC2)c1` has an SUV of 8.85 (FVB/NJ mice, both sexes, liver; intravenous, 30 min, median, no P-gp inhibitor).
`CN(C)S(=O)(=O)c1ccc(S(=O)(=O)N2CCC(n3c(=O)[nH]c4ccccc43)CC2)cc1`: “relative body weight” 98% and 97% and 103% and 101% and 99% (mouse; dose not given, day 4; baseline: day 0).
`Cc1cccc(O[C@H]2CCC[C@@H](C(C)CNCc3ccncc3)C2)c1` (relative stereo) has a body weight of 24.2 g (C57BL/6 mouse adult female; 25 mg/kg, one month, toxicity study).
For `O=S(=O)(NCc1ccncc1)c1ccc(C2CCCCC2)cc1`, “swim speed change” read 15 ± 1 cm/s (CK mouse; 0.3 mg/kg; baseline: vehicle).
`CN(O)C(=O)CCC(=O)NCCCN(CCCCN(CCCNC(=O)CCC(=O)N(C)O)C(=O)CCC(=O)N(C)O)C(=O)CCC(=O)N(C)O.[89Zr]` gave a tracer uptake of 0.01 %ID/g (mouse, heart; 24 h).
`C/C(N)=N/C(=N\S(=O)(=O)c1ccc(C(F)(F)F)cc1)N1C[C@H](c2ccccc2)C(c2ccc(Cl)cc2)=N1` gave an AUC(0-inf) of 21 µg·h/mL (male C57BL/6 mouse, muscle; intravenous, 10 mg/kg).
With `O=C(N/N=C/c1ccc(-c2ccccc2Cl)o1)c1ccccc1` the translation activity was 114% and 106% and 96.3% and 105% (Trypanosoma cruzi; reporter mRNA translation, inhibitor, item: capped polyadenylated Renilla luciferase mRNA; cell-free extract; concentration not given; baseline: positive over negative control).
For `CC(C)n1ncc2c(C(=O)NCC3CNC3)cc(C3CC3)nc21`, the microsomal CLint was less than 9.6 µL/min/mg (metabolic stability; mouse, liver microsomes).

Excerpt of the above:
`CC[C@H](C)[C@@H](C(=O)N[C@@H](CC(C)C)C(=O)N[C@@H](CO)C(=O)N[C@@H](CO)C(=O)N[C@H](C(=O)N[C@@H](CCC(=O)O)C(=O)N[C@H](C(=O)NCC(=O)N[C@@H](CO)C(=O)N[C@@H](CC(N)=O)C(=O)N[C@H](C(=O)N1C[C@H](O)C[C@H]1C(N)=O)[C@@H](C)O)C(C)C)[C@@H](C)O)N(C)C(=O)[C@H](C)NC(=O)CN(C)C(=O)[C@H](Cc1ccccc1)NC(=O)[C@H](CO)NC(=O)[C@H](CO)NC(=O)[C@H](CCCNC(=N)N)NC(=O)[C@H](CCC(N)=O)NC(=O)[C@H](CC(C)C)NC(=O)[C@H](Cc1ccccc1)NC(=O)[C@H](CCCC(=O)O)NC(=O)[C@H](C)NC(=O)[C@H](CC(C)C)NC(=O)[C@H](CCCNC(=N)N)NC(=O)[C@H](CCC(=O)O)NC(=O)[C@@H](NC(=O)[C@H](C)NC(=O)[C@@H]1CCCCNC(=O)C[C@H](NC(=O)[C@H](CCCNC(=N)N)NC(=O)CC[C@H](NC(=O)CCCCCCCCCCCCCCCCCCC(=O)O)C(=O)O)C(=O)NCC(=O)N[C@@H]([C@@H](C)O)C(=O)N[C@@H](C)C(=O)N[C@@H]([C@@H](C)O)C(=O)N1)[C@@H](C)O` gave a covalent oligomers of no more than 0.2% (SEC; formulation, Tris buffer, mannitol, NaCl; 1 weeks, pH 6.6, 40 °C).
For `O=S(=O)(NCc1ccncc1)c1ccc(C2CCCCC2)cc1`, “swim speed change” read 15 ± 1 cm/s (CK mouse; 0.3 mg/kg; baseline: vehicle).
